# Measurements collected from several papers.
# Numbered parts are unrelated; each lists some results of a single study. Values joined by “and” are separate records of one study, mostly repeats; a detail may differ.
# Chain of UniProt P51956 (whole entry, looked up): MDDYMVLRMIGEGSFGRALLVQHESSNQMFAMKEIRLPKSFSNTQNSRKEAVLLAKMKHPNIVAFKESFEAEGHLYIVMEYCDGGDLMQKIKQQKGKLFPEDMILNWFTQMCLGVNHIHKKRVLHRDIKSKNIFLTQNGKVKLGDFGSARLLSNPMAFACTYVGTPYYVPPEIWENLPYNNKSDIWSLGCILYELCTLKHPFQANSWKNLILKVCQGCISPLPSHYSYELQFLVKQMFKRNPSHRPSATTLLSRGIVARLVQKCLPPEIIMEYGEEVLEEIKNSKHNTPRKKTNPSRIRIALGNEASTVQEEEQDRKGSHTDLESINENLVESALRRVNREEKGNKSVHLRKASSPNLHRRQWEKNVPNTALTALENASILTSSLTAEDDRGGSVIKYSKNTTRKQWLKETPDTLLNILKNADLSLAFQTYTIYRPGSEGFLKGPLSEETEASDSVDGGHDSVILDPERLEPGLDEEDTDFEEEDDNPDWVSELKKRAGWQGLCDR
# Chain of UniProt P49761 (whole entry, looked up): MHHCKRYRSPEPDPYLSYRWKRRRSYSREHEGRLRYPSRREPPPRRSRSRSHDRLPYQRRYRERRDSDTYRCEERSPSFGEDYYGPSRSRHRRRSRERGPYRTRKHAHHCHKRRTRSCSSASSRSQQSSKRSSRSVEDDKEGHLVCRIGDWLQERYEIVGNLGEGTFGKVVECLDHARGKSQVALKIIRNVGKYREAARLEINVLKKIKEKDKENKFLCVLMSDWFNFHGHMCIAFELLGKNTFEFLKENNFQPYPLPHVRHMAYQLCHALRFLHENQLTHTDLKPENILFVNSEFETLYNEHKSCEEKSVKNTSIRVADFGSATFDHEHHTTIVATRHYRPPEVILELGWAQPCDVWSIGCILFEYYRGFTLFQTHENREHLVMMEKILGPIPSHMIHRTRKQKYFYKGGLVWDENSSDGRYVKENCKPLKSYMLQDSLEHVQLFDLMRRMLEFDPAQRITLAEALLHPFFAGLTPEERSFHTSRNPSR
# Chain of UniProt Q16539 (whole entry, looked up): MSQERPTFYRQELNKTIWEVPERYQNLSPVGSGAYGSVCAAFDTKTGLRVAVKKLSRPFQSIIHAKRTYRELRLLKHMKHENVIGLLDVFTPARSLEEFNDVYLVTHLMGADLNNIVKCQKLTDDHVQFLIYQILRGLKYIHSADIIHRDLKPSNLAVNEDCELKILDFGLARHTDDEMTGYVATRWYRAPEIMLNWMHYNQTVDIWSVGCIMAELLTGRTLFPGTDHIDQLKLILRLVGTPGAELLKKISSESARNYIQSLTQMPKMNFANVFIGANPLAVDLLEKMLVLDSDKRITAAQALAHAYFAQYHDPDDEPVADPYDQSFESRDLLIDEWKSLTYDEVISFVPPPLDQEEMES
# Chain of UniProt P28482 (whole entry, looked up): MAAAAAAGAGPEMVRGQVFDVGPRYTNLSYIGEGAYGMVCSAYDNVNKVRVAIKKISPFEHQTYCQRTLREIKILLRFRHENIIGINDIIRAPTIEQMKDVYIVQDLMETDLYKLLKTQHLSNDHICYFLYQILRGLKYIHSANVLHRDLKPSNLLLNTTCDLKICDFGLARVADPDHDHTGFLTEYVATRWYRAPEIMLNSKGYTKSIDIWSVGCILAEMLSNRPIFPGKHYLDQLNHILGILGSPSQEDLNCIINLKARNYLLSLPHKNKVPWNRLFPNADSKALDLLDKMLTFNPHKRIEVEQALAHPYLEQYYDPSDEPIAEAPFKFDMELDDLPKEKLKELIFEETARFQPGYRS

# Block 1 — observed: cell-free assay; technique: competition with immobilised ligand; tested at: 1 µM
# Structure (SMILES): CCC(=O)N[C@@H]1CC[C@H](C(=O)N(C)c2ccc(-c3nc4ccccc4o3)cc2)C1
target,remaining binding [%]
"DYRK2 (Homo sapiens, UniProt Q92630)",100
"PIK3CA (Homo sapiens, UniProt P42336, M1043I)",100
"SLK (Homo sapiens, UniProt Q9H2G2)",100
"NUAK2 (Homo sapiens, UniProt Q9H093)",100
"Ribosomal protein S6 kinase alpha-1, C-terminal kinase domain (RPS6KA1, Homo sapiens, UniProt Q15418)",100
"CDK17 (Homo sapiens, UniProt Q00537)",100
"MAP4K2 (Homo sapiens, UniProt Q12851)",100

# Block 2 — observed: enzyme activity; mode: inhibitor; tested at: 0.5 µM; reference: control
# Compound: CC(C)(C)c1nc2c3cc[nH]c(=O)c3c3cc(F)ccc3c2[nH]1
target,remaining activity
"GRK4 (Homo sapiens, UniProt P32298)",74.2%
"CLK4 (Homo sapiens, UniProt Q9HAZ1)",70.7%
"TXK (Homo sapiens, UniProt P42681)",77.1%
"MINK1 (Homo sapiens, UniProt Q8N4C8)",52%
"MAPK14 (Homo sapiens, UniProt Q16539)",93.5%
"CLK3 (Homo sapiens, UniProt P49761)",50.5%
"NEK3 (Homo sapiens, UniProt P51956)",74.4%
"PNCK (Homo sapiens, UniProt Q6P2M8)",112%
"MARK4 (Homo sapiens, UniProt Q96L34)",44.5%
"MAPK1 (Homo sapiens, UniProt P28482)",96.1%
"RPS6KA4 (Homo sapiens, UniProt O75676)",44.7%
"PAK3 (Homo sapiens, UniProt O75914)",90.1%
"CAMK4 (Homo sapiens, UniProt Q16566)",81.8%
"Cyclin-dependent kinase 1, with cyclin A (CDK1, Homo sapiens, UniProt P06493)",89.4%
"CDC42BPB (Homo sapiens, UniProt Q9Y5S2)",96.8%
"AKT2 (Homo sapiens, UniProt P31751)",89.8%
"KDR (Homo sapiens, UniProt P35968)",103%
"ROCK1 (Homo sapiens, UniProt Q13464)",74.9%
"DCLK2 (Homo sapiens, UniProt Q8N568)",65.8%
"Cyclin-dependent kinase 9, with cyclin K (CDK9, Homo sapiens, UniProt P50750)",92.3%
"MAPK11 (Homo sapiens, UniProt Q15759)",83.4%
"MAP2K1 (Homo sapiens, UniProt Q02750)",94.9%
"MARK2 (Homo sapiens, UniProt Q7KZI7)",41.5%
"PLK3 (Homo sapiens, UniProt Q9H4B4)",11%
"PRKG2 (Homo sapiens, UniProt Q13237)",14.3%

# Block 3 — observed: enzyme activity; mode: inhibitor; tested at: 10 µM
# Target: Calcium/calmodulin-dependent protein kinase type II subunit alpha (CAMK2A, Homo sapiens, UniProt Q9UQM7)
# Chain of UniProt Q9UQM7 (whole entry, looked up): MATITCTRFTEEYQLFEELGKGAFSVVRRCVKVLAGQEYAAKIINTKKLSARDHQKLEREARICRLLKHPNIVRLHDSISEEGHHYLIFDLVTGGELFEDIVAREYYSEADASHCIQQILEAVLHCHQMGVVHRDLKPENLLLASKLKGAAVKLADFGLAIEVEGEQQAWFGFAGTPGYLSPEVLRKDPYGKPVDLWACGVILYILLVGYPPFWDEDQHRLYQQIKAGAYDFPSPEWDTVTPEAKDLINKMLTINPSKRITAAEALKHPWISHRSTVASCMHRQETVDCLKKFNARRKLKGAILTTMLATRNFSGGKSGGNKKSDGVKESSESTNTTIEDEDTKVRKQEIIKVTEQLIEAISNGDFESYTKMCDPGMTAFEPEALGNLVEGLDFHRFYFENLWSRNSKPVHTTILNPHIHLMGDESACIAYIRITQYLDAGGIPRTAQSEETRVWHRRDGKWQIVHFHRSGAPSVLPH
SMILES,inhibition
C[C@]12C=CC(=O)N[C@@H]1CC[C@@H]1[C@@H]2CC[C@]2(C)[C@@H](C(=O)Nc3cc(C(F)(F)F)ccc3C(F)(F)F)CC[C@@H]12,-4%
CC(C)C(=O)c1c(C(C)C)nn2ccccc12,-3%
C=C(C)[C@@H]1CCC2=CCC[C@@H](C)[C@]2(C)C1,25%
CCCCCCCCOC(=O)c1cc(O)c(O)c(O)c1,8%
C[C@]12CC[C@H]3[C@@H](CC=C4C[C@@H](O)CC[C@@]43C)[C@@H]1CC[C@@H]2C(=O)CO,-36%
C[C@@H](O)[C@H]1C(=O)N2C(C(=O)OCOC(=O)C(C)(C)C)=C(SC3CN(C4=NCCS4)C3)[C@H](C)[C@H]12,-8%
CC1=C(C)C(=O)O[C@@H]([C@](C)(O)[C@H]2CC[C@H]3[C@@H]4[C@@H]5O[C@@H]5[C@@]5(O)CC=CC(=O)[C@]5(C)[C@H]4CC[C@]23C)C1,5%
CC(=O)N(O)CCCCCNC(=O)CCC(=O)N(O)CCCCCNC(=O)CCC(=O)N(O)CCCCCN,-14%
OCc1cc([C@@H](O)CNCCCCCCOCCOCc2c(Cl)cccc2Cl)ccc1O,-2%
COc1cccc2c1C(=O)c1c(O)c3c(c(O)c1C2=O)C[C@@](O)(C(=O)CO)C[C@@H]3O[C@H]1C[C@H](N)[C@@H](O)[C@H](C)O1,7%

# Block 4 — observed: enzyme activity; mode: inhibitor; tested at: 77 µM; reference: untreated
# Target: DNA polymerase theta, ATPase domain (POLQ, Homo sapiens, UniProt O75417)
# Chain of UniProt O75417 (whole entry, unmodified, looked up): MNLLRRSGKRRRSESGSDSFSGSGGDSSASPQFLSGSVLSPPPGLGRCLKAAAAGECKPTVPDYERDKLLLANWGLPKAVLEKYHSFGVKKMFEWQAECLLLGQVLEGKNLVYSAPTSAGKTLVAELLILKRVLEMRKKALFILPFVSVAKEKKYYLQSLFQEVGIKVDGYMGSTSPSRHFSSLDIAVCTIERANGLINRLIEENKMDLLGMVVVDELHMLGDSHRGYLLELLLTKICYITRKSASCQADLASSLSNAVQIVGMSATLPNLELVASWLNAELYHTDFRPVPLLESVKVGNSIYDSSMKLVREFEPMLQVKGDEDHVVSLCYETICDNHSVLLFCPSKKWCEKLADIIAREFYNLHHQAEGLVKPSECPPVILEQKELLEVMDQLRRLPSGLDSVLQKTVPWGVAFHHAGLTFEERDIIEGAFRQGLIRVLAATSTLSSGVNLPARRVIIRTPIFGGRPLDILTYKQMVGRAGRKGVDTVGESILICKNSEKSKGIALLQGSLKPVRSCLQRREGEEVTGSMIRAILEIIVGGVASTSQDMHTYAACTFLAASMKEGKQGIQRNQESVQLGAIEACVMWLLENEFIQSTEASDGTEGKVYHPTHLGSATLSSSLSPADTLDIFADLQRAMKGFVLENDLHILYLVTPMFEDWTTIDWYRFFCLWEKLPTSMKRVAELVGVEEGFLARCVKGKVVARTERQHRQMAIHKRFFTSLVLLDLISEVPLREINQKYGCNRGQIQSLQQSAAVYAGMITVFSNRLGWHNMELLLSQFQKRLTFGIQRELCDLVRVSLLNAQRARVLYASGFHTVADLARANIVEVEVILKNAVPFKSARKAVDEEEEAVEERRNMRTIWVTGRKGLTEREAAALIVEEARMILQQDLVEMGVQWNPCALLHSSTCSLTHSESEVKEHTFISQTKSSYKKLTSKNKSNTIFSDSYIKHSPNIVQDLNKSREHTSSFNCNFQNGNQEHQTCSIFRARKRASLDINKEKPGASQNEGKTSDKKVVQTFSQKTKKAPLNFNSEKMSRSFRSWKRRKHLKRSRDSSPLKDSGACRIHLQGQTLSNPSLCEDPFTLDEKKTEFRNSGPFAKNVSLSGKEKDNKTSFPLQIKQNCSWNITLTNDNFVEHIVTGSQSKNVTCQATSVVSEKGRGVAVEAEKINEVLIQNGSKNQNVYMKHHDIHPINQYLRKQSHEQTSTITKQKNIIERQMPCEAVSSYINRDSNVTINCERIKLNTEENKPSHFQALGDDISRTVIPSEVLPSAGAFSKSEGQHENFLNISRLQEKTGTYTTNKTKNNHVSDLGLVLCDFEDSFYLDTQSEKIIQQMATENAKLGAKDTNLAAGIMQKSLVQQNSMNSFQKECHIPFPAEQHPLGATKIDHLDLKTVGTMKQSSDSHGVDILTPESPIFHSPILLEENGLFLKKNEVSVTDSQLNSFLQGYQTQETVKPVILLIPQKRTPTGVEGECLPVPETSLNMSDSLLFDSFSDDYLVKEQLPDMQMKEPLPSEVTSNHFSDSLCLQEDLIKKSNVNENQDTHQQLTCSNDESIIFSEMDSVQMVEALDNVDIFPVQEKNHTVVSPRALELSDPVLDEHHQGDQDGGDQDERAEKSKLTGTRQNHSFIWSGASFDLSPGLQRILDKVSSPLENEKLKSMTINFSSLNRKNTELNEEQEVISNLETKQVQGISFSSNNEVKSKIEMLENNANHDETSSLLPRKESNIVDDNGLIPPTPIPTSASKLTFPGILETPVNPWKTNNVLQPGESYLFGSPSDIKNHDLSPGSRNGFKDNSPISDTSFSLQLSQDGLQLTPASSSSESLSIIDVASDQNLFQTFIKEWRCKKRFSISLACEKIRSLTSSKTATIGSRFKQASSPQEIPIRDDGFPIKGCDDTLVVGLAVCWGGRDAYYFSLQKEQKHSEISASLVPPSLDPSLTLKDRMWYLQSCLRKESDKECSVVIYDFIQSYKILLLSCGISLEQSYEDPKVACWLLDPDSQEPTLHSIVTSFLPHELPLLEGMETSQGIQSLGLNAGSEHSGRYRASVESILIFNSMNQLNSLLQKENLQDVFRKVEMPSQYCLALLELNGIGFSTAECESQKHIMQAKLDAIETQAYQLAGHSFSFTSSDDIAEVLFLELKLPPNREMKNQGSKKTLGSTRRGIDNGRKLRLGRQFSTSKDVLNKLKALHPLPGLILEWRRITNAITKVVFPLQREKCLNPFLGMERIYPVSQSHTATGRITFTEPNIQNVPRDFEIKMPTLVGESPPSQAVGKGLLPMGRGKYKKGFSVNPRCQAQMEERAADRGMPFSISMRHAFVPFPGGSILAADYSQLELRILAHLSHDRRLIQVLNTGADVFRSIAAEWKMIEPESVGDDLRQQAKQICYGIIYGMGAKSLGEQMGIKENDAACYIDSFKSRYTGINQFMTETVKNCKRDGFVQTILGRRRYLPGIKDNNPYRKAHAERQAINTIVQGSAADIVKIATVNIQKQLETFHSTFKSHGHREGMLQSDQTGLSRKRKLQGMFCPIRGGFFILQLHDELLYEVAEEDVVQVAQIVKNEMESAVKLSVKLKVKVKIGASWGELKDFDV
Structure (SMILES),remaining activity
Nc1nc(Cl)nc2c1ncn2[C@H]1C[C@H](O)[C@@H](CO)O1,99%
CCC(Cc1c(I)cc(I)c(N)c1I)C(=O)O (centres unmarked),202%
COc1cc(C(=O)OCCCN2CCCN(CCCOC(=O)c3cc(OC)c(OC)c(OC)c3)CC2)cc(OC)c1OC,94.6% and 103%
CO[C@H]1/C=C/O[C@@]2(C)Oc3c(C)c(O)c4c(c3C2=O)C2=NC3(CCN(CC(C)C)CC3)NC2=C(NC(=O)/C(C)=C\C=C\[C@H](C)[C@H](O)[C@@H](C)[C@@H](O)[C@@H](C)[C@H](OC(C)=O)[C@@H]1C)C4=O,98.3% and 95.9%
O=c1cc(N2CCNCC2)oc2c(-c3ccccc3)cccc12,103%
Nc1nc(OCc2cc(Br)cs2)c2[nH]cnc2n1,82.4%
CO[C@H]1/C=C/O[C@@]2(C)Oc3c(C)c(O)c4c(O)c(c5c(nc6cc(C)ccn65)c4c3C2=O)NC(=O)/C(C)=C\C=C\[C@H](C)[C@H](O)[C@@H](C)[C@@H](O)[C@@H](C)[C@H](OC(C)=O)[C@@H]1C,103%
CCN1CCCC(OC(=O)C(c2ccccc2)c2ccccc2)C1 (centres unmarked),102%

# Excerpt of the above (block 3):
SMILES,inhibition
CC(=O)N(O)CCCCCNC(=O)CCC(=O)N(O)CCCCCNC(=O)CCC(=O)N(O)CCCCCN,-14%
C=C(C)[C@@H]1CCC2=CCC[C@@H](C)[C@]2(C)C1,25%
CC1=C(C)C(=O)O[C@@H]([C@](C)(O)[C@H]2CC[C@H]3[C@@H]4[C@@H]5O[C@@H]5[C@@]5(O)CC=CC(=O)[C@]5(C)[C@H]4CC[C@]23C)C1,5%
C[C@]12C=CC(=O)N[C@@H]1CC[C@@H]1[C@@H]2CC[C@]2(C)[C@@H](C(=O)Nc3cc(C(F)(F)F)ccc3C(F)(F)F)CC[C@@H]12,-4%
C[C@@H](O)[C@H]1C(=O)N2C(C(=O)OCOC(=O)C(C)(C)C)=C(SC3CN(C4=NCCS4)C3)[C@H](C)[C@H]12,-8%
COc1cccc2c1C(=O)c1c(O)c3c(c(O)c1C2=O)C[C@@](O)(C(=O)CO)C[C@@H]3O[C@H]1C[C@H](N)[C@@H](O)[C@H](C)O1,7%
CCCCCCCCOC(=O)c1cc(O)c(O)c(O)c1,8%
C[C@]12CC[C@H]3[C@@H](CC=C4C[C@@H](O)CC[C@@]43C)[C@@H]1CC[C@@H]2C(=O)CO,-36%
